Measurements collected from several papers.
± marks the error that the study gave.
Cell line: HEK293

| SMILES | read-out | mode | method | time | together with | IC50 |
| --- | --- | --- | --- | --- | --- | --- |
| CC(=O)[C@@H]1CCCN1C(=O)[C@@H]1CCCN1C(=O)[C@H](Cc1ccccc1)N(C)C(=O)OC(C)(C)C | cell growth or viability |  | SRB |  |  | 160 µM |
| Fc1ccc(Nc2nc(NC3CCCCC3)c3ccccc3n2)cc1F | cAMP production | inhibitor | BRET |  | isoproterenol 1 µM | ~50 µM |
| O=C1c2ccc3c4ccc5c6c(ccc(c7ccc(c2c37)C(=O)N1CCN1CCCCC1)c64)C(=O)N(CCN1CCCCC1)C5=O | cell growth or viability |  | SRB | 72 h |  | 278 µM |
| CC(=O)NCCCN(C)CCCNc1cccc2c1C(=O)c1cccc(NCCCN(C)CCCNC(C)=O)c1C2=O | cell growth or viability |  | CCK-8 | 48 h |  | 0.9 µM |
| Cc1cccc2c1NC(=O)C21C2=C(COC2=O)NC2=C1C(=O)c1ccccc1C2=O (centres unmarked) | cell growth or viability |  | MTT | 72 h |  | 10 µM |
| CCn1cc(/C=C/c2sc3ccccc3[n+]2CC)c2ccccc21 | cell growth or viability |  | MTT | 24 h |  | 12.8 µM |
| Cc1cc(C)c(-n2c3c([n+](-c4c(C)cc(C)cc4C)[c]2[Cu-][Cl])-c2cccc4cccc-3c24)c(C)c1 | cell growth or viability |  | MTT | 72 h |  | 1.1 µM |
| CCCC(CCC)C(=O)[O][Pt]([NH2])([NH2])([Cl])([Cl])[O]C(=O)C(Cl)Cl | cell growth or viability |  | MTT | 72 h |  | 1.98 µM |
| CCN(CC)CCN1C(=O)c2ccc3c4cccc5cccc(c6ccc(c2c36)C1=O)c54 | cell growth or viability |  | SRB | 72 h |  | 191 µM |
| CCCCCCOc1c(O)cc(C(=O)O[C@@H]2Cc3c(O)cc(O)cc3O[C@@H]2c2cc(O)c(O)c(O)c2)cc1O | cell growth or viability |  | CCK-8 | 24 h |  | > 150 µM |
| CC(C)C[C@H](NC(=O)[C@@H](Cc1c[nH]c2ccccc12)NC(=O)[C@H](Cc1c[nH]cn1)NC(=O)[C@H](CO)NC(=O)[C@H](Cc1c[nH]c2ccccc12)NC(=O)[C@H](Cc1c[nH]cn1)NC(=O)[C@@H]1CCC(=O)N1)C(=O)N[C@@H](CCCNC(=N)N)C(=O)N1CCC[C@H]1C(=O)NCC(N)=O | cell growth or viability |  | SRB |  |  | 0.0012 µM |
| FC(F)(F)Sc1ccc(-c2noc(-c3cccs3)c2C(F)(F)F)cc1 | cell growth or viability |  | MTT | 48 h |  | 118 µM |
| CC(C)C[C@H](NC(=O)[C@@H](Cc1c[nH]c2ccccc12)NC(=O)[C@H](Cc1ccc(O)cc1)NC(=O)[C@H](CO)NC(=O)[C@H](Cc1c[nH]c2ccccc12)NC(=O)[C@H](Cc1c[nH]cn1)NC(=O)[C@@H]1CCC(=O)N1)C(=O)N[C@@H](CCCNC(=N)N)C(=O)N1CCC[C@H]1C(=O)NCC(N)=O | cell growth or viability |  | SRB |  |  | 0.0004 µM |
| [Cl][Au-][c]1n(-c2c(C(c3ccccc3)c3ccccc3)cc(C(c3ccccc3)c3ccccc3)cc2C(c2ccccc2)c2ccccc2)c2c([n+]1-c1c(C(c3ccccc3)c3ccccc3)cc(C(c3ccccc3)c3ccccc3)cc1C(c1ccccc1)c1ccccc1)-c1cccc3cccc-2c13 | cell growth or viability |  | MTT | 72 h |  | > 50 µM |
| O=C(O[C@@H]1Cc2c(O)cc(O)cc2O[C@@H]1c1cc(O)c(O)c(O)c1)c1cc(O)c(O)c(O)c1 | cell growth or viability |  | CCK-8 | 24 h |  | > 150 µM |
| COC(=O)[C@@H]1CCCN1C(=O)[C@H](Cc1ccccc1)NC(=O)OC(C)(C)C | cell growth or viability |  | SRB |  |  | 238 µM |
| CC(C)Cc1ccc(C(C)C(=O)[O][Pt]([NH2])([NH2])([Cl])([Cl])[O]C(=O)C(Cl)Cl)cc1 (centres unmarked) | cell growth or viability |  | MTT | 72 h |  | 0.07 µM |
| CCCCCCCCCCCCCCOc1c(O)cc(C(=O)O[C@@H]2Cc3c(O)cc(O)cc3O[C@@H]2c2cc(O)c(O)c(O)c2)cc1O | cell growth or viability |  | CCK-8 | 24 h |  | > 150 µM |

| SMILES | read-out | mode | method | time | together with | IC50 |
| --- | --- | --- | --- | --- | --- | --- |
| Cc1cc(C)c(-n2c3c([n+](-c4c(C)cc(C)cc4C)[c]2[Au-][Cl])-c2cccc4cccc-3c24)c(C)c1 | cell growth or viability |  | MTT | 72 h |  | 36 µM |
| CC1(N)CCN(c2nc(N(Cc3ccccc3)Cc3ccccc3)nc3c2ncn3Cc2ccccc2)CC1 | cell growth or viability |  | WST-1 | 72 h |  | 5.6 µM |
| CCCCCCCCCCCCCCCCCC(=O)N[C@@H](CCCNC(=N)N)C(=O)N[C@@H](CCCNC(=N)N)C(=O)N[C@@H](CCCNC(=N)N)C(=O)N[C@@H](CCCNC(=N)N)C(=O)N[C@@H](CCCNC(=N)N)C(N)=O | cell growth or viability |  | resazurin |  |  | > 32 µg/mL |
| COC(=O)[C@@H](NC(=O)[C@@H](NC(=O)[C@@H](NC(=O)OC(C)(C)C)C(C)C)C(C)C)C(C)C | cell growth or viability |  | SRB |  |  | 145 µM |
| C=C[CH2][Pd-]([Cl])[Cl].CC(C)c1cccc(C(C)C)c1-n1c[n+](-c2c(C(C)C)cccc2C(C)C)c2c1-c1cccc3cccc-2c13 | cell growth or viability |  | MTT | 72 h |  | 1.7 µM |
| Cc1ccc(-c2noc(-c3cccs3)c2C(F)(F)F)cc1 | cell growth or viability |  | MTT | 48 h |  | 110 µM |
| CCCCCCCCOc1c(O)cc(C(=O)O[C@@H]2Cc3c(O)cc(O)cc3O[C@@H]2c2cc(O)c(O)c(O)c2)cc1O | cell growth or viability |  | CCK-8 | 24 h |  | > 150 µM |
| COC(=O)[C@@H]1CCCN1C(=O)[C@H](C)N(C)C(=O)OC(C)(C)C | cell growth or viability |  | SRB |  |  | 2450 µM |
| CC(=NNC(=S)NN=C(C(=NO)c1ccccc1)c1ccccc1)c1ccccc1 | cell growth or viability |  | MTT | 48 h |  | 71.7 µM |
| CCCCCCCCCCCCCCCC(=O)N[C@@H](CCCCN)C(=O)N[C@@H](CCCCN)C(=O)N[C@@H](CCCCN)C(=O)N[C@@H](CCCCN)C(=O)N[C@@H](CCCCN)C(N)=O | cell growth or viability |  | resazurin |  |  | > 32 µg/mL |
| Cc1ccc(C(C)C)cc1.Cl.[Cl][Ru+].[Ru+].c1ccc(-c2cn(CCCCOc3ccccc3-c3nc4ccccc4s3)nn2)nc1 | cytotoxicity |  | MTT | 48 h |  | 85.6 ± 2.5 µM |
| O=C(/C=C/C=C/c1ccccc1)c1ccccc1OCc1cc(F)cc(F)c1 | cell growth or viability |  | MTT | 48 h |  | 37 µM |
| CC(C)Cc1ccc(C(C)C(=O)[O][Pt]([NH2])([NH2])([Cl])([Cl])[O]C(=O)CCCc2ccccc2)cc1 (centres unmarked) | cell growth or viability |  | MTT | 72 h |  | 0.13 µM |
| Fc1ccc(-c2noc(-c3cccs3)c2C(F)(F)F)cc1 | cell growth or viability |  | MTT | 48 h |  | 92.1 µM |
| CN1CCCNC(=O)CC2(CCCCC2)CC(=O)NCCCN(C)CCCNc2cccc3c2C(=O)c2cccc(c2C3=O)NCCC1 | cell growth or viability |  | CCK-8 | 48 h |  | 6.3 µM |
| CCCCCCCCCC(=O)N[C@@H](Cc1ccccc1)C(=O)N[C@@H](Cc1ccccc1)C(=O)N[C@@H](Cc1ccccc1)C(=O)N[C@@H](Cc1ccccc1)C(=O)N[C@@H](CCCCN)C(=O)N[C@@H](CCCCN)C(=O)N[C@@H](CCCCN)C(=O)N[C@@H](CCCCN)C(=O)N[C@@H](CCCCN)C(N)=O | cell growth or viability |  | resazurin |  |  | > 32 µg/mL |
| O=C1c2ccc3c4cccc5c(N6CCNCC6)ccc(c6ccc(c2c36)C(=O)N1CCN1CCCCC1)c54 | cell growth or viability |  | SRB | 72 h |  | 258 µM |

For quick reference, copied from above:
| SMILES | read-out | mode | method | time | together with | IC50 |
| --- | --- | --- | --- | --- | --- | --- |
| CC(C)Cc1ccc(C(C)C(=O)[O][Pt]([NH2])([NH2])([Cl])([Cl])[O]C(=O)CCCc2ccccc2)cc1 (centres unmarked) | cell growth or viability |  | MTT | 72 h |  | 0.13 µM |
| Fc1ccc(-c2noc(-c3cccs3)c2C(F)(F)F)cc1 | cell growth or viability |  | MTT | 48 h |  | 92.1 µM |
| CN1CCCNC(=O)CC2(CCCCC2)CC(=O)NCCCN(C)CCCNc2cccc3c2C(=O)c2cccc(c2C3=O)NCCC1 | cell growth or viability |  | CCK-8 | 48 h |  | 6.3 µM |
| CCCCCCCCCC(=O)N[C@@H](Cc1ccccc1)C(=O)N[C@@H](Cc1ccccc1)C(=O)N[C@@H](Cc1ccccc1)C(=O)N[C@@H](Cc1ccccc1)C(=O)N[C@@H](CCCCN)C(=O)N[C@@H](CCCCN)C(=O)N[C@@H](CCCCN)C(=O)N[C@@H](CCCCN)C(=O)N[C@@H](CCCCN)C(N)=O | cell growth or viability |  | resazurin |  |  | > 32 µg/mL |
| O=C1c2ccc3c4cccc5c(N6CCNCC6)ccc(c6ccc(c2c36)C(=O)N1CCN1CCCCC1)c54 | cell growth or viability |  | SRB | 72 h |  | 258 µM |
